Experimental data gathered from unrelated publications.
Every numbered part comes from another study and shows a few of its results, in no order.

Sample 1 — method: RNA Bind-n-Seq; molecule type: RNA; medium: in vitro; tested at: 1 µM; setting: whole 134-nt RNA, ends assumed; added: 150 mM KCl; baseline: input library; direction: higher = stronger binding
Target: Ras GTPase-activating protein-binding protein 1, C-terminal RGG region (G3BP1, Homo sapiens, UniProt Q13283)
Chain of UniProt Q13283 (whole entry, looked up): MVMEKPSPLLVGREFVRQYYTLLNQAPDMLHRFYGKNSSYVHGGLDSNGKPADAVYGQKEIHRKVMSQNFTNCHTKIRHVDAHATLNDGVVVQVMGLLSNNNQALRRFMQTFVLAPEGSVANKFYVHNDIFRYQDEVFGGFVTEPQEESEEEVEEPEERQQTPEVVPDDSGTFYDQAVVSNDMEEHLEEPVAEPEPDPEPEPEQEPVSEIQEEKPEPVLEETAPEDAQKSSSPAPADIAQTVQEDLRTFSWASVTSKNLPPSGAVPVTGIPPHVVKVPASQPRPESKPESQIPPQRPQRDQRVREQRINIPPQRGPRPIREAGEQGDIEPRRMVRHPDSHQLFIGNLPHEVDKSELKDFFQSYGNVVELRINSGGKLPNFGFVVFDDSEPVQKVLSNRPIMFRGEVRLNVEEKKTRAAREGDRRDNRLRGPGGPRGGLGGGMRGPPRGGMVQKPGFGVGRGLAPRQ
Oligonucleotide | log2 enrichment
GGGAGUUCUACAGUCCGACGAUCUCAAGUCCUGUGCUACACAUCGUAUGUACCGAAUCGGAAAAAGGUUUUUGGUGGAAAGUAUUAUGUUACGCCGUUCGGAUCUGCACUUCCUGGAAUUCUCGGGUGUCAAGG | -1.29
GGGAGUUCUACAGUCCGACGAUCCAAGUCCUGUGCUACACAUCGUAUGUACCGAAUCAAAUUUAAACCCAAACCCAAAAAAGUAUUAUGUUACGCCGUUCGGAUCUGCACUUCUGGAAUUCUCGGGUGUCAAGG | -0.68
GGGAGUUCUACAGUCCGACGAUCUUGCUUCAAGAAGAUCCCUAAGCUGUAGAACAUUUUAACGUUGAUGCCACAACGCAGAUUGAUGCCUUGUAGAUGGAGCUUGCAGAUGGAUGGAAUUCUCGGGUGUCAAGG | -0.817
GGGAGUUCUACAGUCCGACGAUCUGGGAGGUGGAUUUUGUUUAUUUUUUUAGCUCAUUUCCAGGGGUGGGAAUUUUAUUUUAAUAUGUGUCAUGAAUAAAGUUGUUUUUGAAAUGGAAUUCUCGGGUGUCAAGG | 3.35
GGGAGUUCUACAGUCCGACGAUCUCAAGUCCUGUGCUACACAUCGUAUGUACCGAAUCGGCCCGGGCCCGGCCCGGGAAAGUAUUAUGUUACGCCGUUCGGAUCUGCACUUCCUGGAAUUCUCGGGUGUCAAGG | -1.62
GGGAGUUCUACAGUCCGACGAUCGUCCUGUGCUACACAUCGUAUGUACCGAAUCGGGGUUUUUGGGGAGGGGAAAAAGGGGAAAGUAUUAUGUUACGCCGUUCGGAUCUGCACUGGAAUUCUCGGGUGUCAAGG | 1.69
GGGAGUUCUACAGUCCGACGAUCUCAAGUCCUGUGCUACACAUCGUAUGUACCGAAUCGGGUUUGGUUUGGUUUGGGGAAAGUAUUAUGUUACGCCGUUCGGAUCUGCACUUCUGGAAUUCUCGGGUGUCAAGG | -1.26
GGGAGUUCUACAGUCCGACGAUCGUCCUGUGCUACACAUCGUAUGUACCGAAUCGGGGAAAGGGGAAAAAGGGGAAAGGGGAAAGUAUUAUGUUACGCCGUUCGGAUCUGCACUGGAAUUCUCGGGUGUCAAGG | 3.13
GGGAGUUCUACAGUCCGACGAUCAAGUCCUGUGCUACACAUCGUAUGUACCGAAUCGGGUUUUUUUGGGAGGGUUUGGGAAAGUAUUAUGUUACGCCGUUCGGAUCUGCACUUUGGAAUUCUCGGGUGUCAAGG | 0.665
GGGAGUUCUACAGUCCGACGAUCAAGUCCUGUGCUACACAUCGUAUGUACCGAAUCGGGAAAAGGGAAAAGGGAAAAGGAAAGUAUUAUGUUACGCCGUUCGGAUCUGCACUUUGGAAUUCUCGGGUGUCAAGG | -1.61

Sample 2 — method: RNA Bind-n-Seq; molecule type: RNA; medium: in vitro; tested at: 365 nM; baseline: no-protein control; direction: higher = stronger binding
Target: RNA binding protein fox-1 homolog 2, RRM domain, GST-SBP tag (RBFOX2, Homo sapiens, UniProt O43251-10, residues 100-194)
Setting: natural RNA segment, single round, ends assumed
Construct (chain): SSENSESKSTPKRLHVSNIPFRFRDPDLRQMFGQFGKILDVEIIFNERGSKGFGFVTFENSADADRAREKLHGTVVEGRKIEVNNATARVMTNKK
Oligonucleotide | RBNS enrichment (R)
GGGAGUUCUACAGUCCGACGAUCAGUAUUAAAAUAAGGCUGUCCCCUACAACCUUCUUAGUCACACAGGAUCCCUGUAGCCAAAACAGUAUAUGAUCCAGCUGCAGAGAGCAGACUGCUCUCAGCUUGCACAGUGGAAUUCUCGGGUGCCAA | 0.368
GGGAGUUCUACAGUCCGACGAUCCGCACUUUUAAGGUUUGGUUGUUUUUUAUAUAUAUAUGUGUAUAGUUACCAACUUAAAAAUAAAAAAUCCGAACAACAUACUUGAAGAAUGUAAUACUCAAACUCUCAGUUGGAAUUCUCGGGUGCCAA | 0.289
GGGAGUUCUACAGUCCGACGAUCAGACGUGAGUUAUCCAAGUAUUUAUUUUGUGUAGUGUGUAAGAAUGCUAAAUAAAAUGUUAUACAAGUCAAGUUUUUGCGUGUUAUUUUUCCUGAGAAGUAAUUUUUAGGUGGAAUUCUCGGGUGCCAA | 0.439
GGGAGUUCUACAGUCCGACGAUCUCAGGCCACACCAGGUUCCCUCUGCAAGGGCCUCGGCUCAGUCGUGUGCACUUCCUCGGAGAGCCUUGGGCUGCCACGUCCACCCCGGGCUCUGCCCGUCCUGUUCUGCCUGGAAUUCUCGGGUGCCAA | 0.244
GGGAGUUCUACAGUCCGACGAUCCAAGACAGUAGAUGAGUCUGGUUAAGCGAGGUCAGACAUCCACCAGAAUCAACUCAGCCUCAGGCAUCCAAAGCCACACCACAGUCGGUGGUGAUGCAACUGGGGGCUUAUGGAAUUCUCGGGUGCCAA | 0.381
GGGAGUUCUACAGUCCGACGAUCGACAGGCCUGGCCUCACACGCCAGAUCCAAAAUGUUGACCUGGACAAUCUGUCCCUGGUGCCCAUGCAGGAGAAACCCUGAGACACAGAAGAGAAUUGCAGGGUCUUCUGUGGAAUUCUCGGGUGCCAA | 0.311
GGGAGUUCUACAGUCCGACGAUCAUUCUGGUGGGGUGUGUUCCAACUGCCCCCAACUUUGUGGAUGUCUUCCUUGGAGGGGGGAGCCAUAUUUUAUUCUUUUAUUGUCAGUAUCUGUAUCUCUCUCUCUUUUUUGGAAUUCUCGGGUGCCAA | 0.625
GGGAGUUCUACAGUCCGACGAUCUCCUGGGCCAGCCCUUAUGUCUGAAACUGGUUGCCAACAGCCCCGAGCCAAGGCAAGGAUUUGUGUUUGCCAAAAAUGUUCUGGGGACCCAGCCAGUGUGGGUCUGAACAUGGAAUUCUCGGGUGCCAA | 0.671
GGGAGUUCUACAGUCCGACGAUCUUUCUACUGAACAUCCUAGUUUUAAACAGAAGAAAAACUGUAAUCCUGGGGUUGGUAUGUAGGAGGUCUAUCCUGCAGAAUAAGUUGAUACAUUAGUACCUGAUUUCAUAUGGAAUUCUCGGGUGCCAA | 0.31
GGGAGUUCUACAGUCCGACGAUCACAGAUAACAUAAAAGUUCUGUUACCCUCAUUCUAUACAACCUAUGGAUUUCAUGUGUUACAAUAUCAGUUUCCAGAAUAAAGUGAGGGAAAUCAGGUCUUUAUUGAUAAUGGAAUUCUCGGGUGCCAA | 0.302
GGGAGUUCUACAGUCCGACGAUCUAGUGGCAUCAAAUGGCAACAUGGAAUAUUGUCCUCCAUGCCCCUCCAGAAGGACCUAGGAGAGUAGGUGAGCUUUCCAAAGUGAGAGACGAAUCUUUCUUUCUUUUUUUUGGAAUUCUCGGGUGCCAA | 0.362
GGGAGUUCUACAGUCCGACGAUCGGGAACGAGAAAACUGCUGUUCGUUUGUAUUUGUGAACUUGGCUGUAAUCUGGUAUGCCAUAGGAUGUCAGAUAAUACCACUGGUUAAAAUAAAGCCUAGUUUUCAAAUUUGGAAUUCUCGGGUGCCAA | 0.723

Sample 3 — method: universal PBM; molecule type: double-stranded DNA, one strand shown; medium: in vitro; tested at: not given; direction: higher = stronger binding
Target: Sal-like protein 4, full length isoform B (SALL4, Homo sapiens, UniProt Q9UJQ4-2, residues 1-616)
Setting: 8-mer, flanks averaged, mean of replicates
Oligonucleotide | E-score
CTAACGGA | 0.00375
GCTAAAGA | 0.0962
TAATGCTA | 0.277
GATTAGTA | 0.2
TAAAAAGA | 0.259
TCAAAGCA | 0.0963
AATGGCAT | 0.128
TGAAGCAA | 0.0694
CACTCTCC | -0.036
CTATTACC | 0.076
ATGCAACC | 0.0892
ATCAATAA | 0.414
ACGATACA | 0.113
GGTCTCCA | -0.143
ATAGTAAC | 0.213
AGCCTAAC | -0.148
AACCGCTC | -0.149
AGAGACCT | -0.0718
GCGTACAA | -0.087
TAGGGAGA | -0.0193
AAGCGGAA | 0.00156
CCCAGCCC | -0.262
CAGTTTCA | -0.00449
AACTTTCA | 0.208

Sample 4 — method: protein binding microarray; molecule type: double-stranded DNA, one strand shown; medium: in vitro; tested at: not given; baseline: not given; direction: higher = stronger binding
Target: Histone acetyltransferase KAT6A, winged helix 1, GST fusion (KAT6A, Homo sapiens, UniProt Q92794, residues 1-85)
Setting: 8-mer, flanks averaged, mean of 2 arrays, mostly near background
Target sequence (chain): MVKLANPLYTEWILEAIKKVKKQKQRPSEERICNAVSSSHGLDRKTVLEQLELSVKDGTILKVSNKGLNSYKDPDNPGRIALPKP
Oligonucleotide | E-score
ACGTTGAG | -0.11
AGTCTTAG | -0.131
CGATACCA | -0.0944
ATCCGAGA | -0.0326
CTATTTCA | -0.143
AACACTAC | -0.0253
AGCTTTTA | 0.00468
GCAACTGC | 0.179
ACCACGTA | -0.227
TGCCTACA | -0.0928
GCTTAGAA | -0.0613
CTACTTGA | -0.238
ATGGCAAC | 0.0062
AGCGTGAT | -0.027
AACGTCTG | 0.00494
ACAGCCTG | -0.103
AGAGTTAC | -0.144
GAGCGTGA | 0.189
TTACGCAA | 0.0762
AGCAATGC | -0.207
CGAGCAAG | -0.0562
CGCGCCAG | 0.374
CGAATAAA | -0.125
TACTGCTA | -0.0374
CCGCGAGC | 0.388

Some of these lines once more (sample 4):
Oligonucleotide | E-score
ACCACGTA | -0.227
TGCCTACA | -0.0928
GCTTAGAA | -0.0613
CTACTTGA | -0.238
ATGGCAAC | 0.0062
AGCGTGAT | -0.027
AACGTCTG | 0.00494
ACAGCCTG | -0.103
AGAGTTAC | -0.144
